{"data": "Published values from different studies", "note": "Each numbered part is a random draw from the data of one study; scales do not carry over between parts. Changes are numbered by the printed parent chain."}
{"data": "Sample 1", "target": "RNA binding protein fox-1 homolog 2, RRM domain, GST-SBP tag (RBFOX2, Homo sapiens, UniProt O43251-10, residues 100-194)", "technique": "RNA Bind-n-Seq", "molecule type": "RNA", "matrix": "in vitro", "tested at": "365 nM", "notes": "natural RNA segment, single round, ends assumed", "baseline": "no-protein control", "direction": "higher = stronger binding", "Target sequence (chain)": "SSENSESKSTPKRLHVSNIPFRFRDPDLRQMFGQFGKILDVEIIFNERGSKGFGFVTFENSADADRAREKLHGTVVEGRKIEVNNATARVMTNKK"}
{"Sequence": "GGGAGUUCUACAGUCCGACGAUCGUAAAUAAAUGUAUAUGUGUUUCUAUAAUUCUGGAGAGAUAUGGAAUCCUCCCCUUUCUGGCACAAGACAGAAAGCAAGCAGCUGAGUAACUGGAGACCAGUGGAAAUGAUGGAAUUCUCGGGUGCCAA", "RBNS enrichment (R)": 0.78}
{"Sequence": "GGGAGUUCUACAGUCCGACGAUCAAAUUUCCAAAUUAAAAACGUAUAUGUGUACUCUUUUAAAAAGGAAUUUGAUAGUUCUUGUCAAAUGAGAAAAUUUAAAGGUAAGAGUUAUGGUUUGUCUUAUGCUGCAUUGGAAUUCUCGGGUGCCAA", "RBNS enrichment (R)": 0.893}
{"Sequence": "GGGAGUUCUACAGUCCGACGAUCUUUAGAGUUUUACCAGCUAUUUAUUGAGUACCCUGUAUAUAGUAGAUCAGUGAGGAGGUGAAUGUAUAAGUUAUGGCCUGGACCCUGCUGCAGAUGCUGUGAGAGUCUGGUGGAAUUCUCGGGUGCCAA", "RBNS enrichment (R)": 1.91}
{"Sequence": "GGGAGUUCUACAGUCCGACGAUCCCUCUUGAAUCCAAGUGUCUGUAGCUUUGGAGACUGAGGGUCUGUGAAUAAAGGCGGUGGCACUGGAGUGGCUCCAUGGCAGUCUGUCAGGUCCUACCCUGAAGCCCGCAUGGAAUUCUCGGGUGCCAA", "RBNS enrichment (R)": 0.376}
{"Sequence": "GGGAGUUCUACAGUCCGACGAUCGCGUAAAGCAGAACAGCCUCCCGAAUGAAGCGUUGCCAUUGAACUCACCAGUGAGUUAGCAGCACGUGUUCCCGACAUAACAUUGUACUGUAAUGGAGUGAGCGUAGCAGUGGAAUUCUCGGGUGCCAA", "RBNS enrichment (R)": 0.912}
{"Sequence": "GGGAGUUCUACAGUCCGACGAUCACAUUUCUAGAAAAAACUACUUUUGUACCAGUGUGAAUAAAGUUAGUGUGUUGUCUGUGCAGCUGCACCCAGACUCCUACGCAUUUCUGUCCGCUGUGCAUCUGGACUCCUGGAAUUCUCGGGUGCCAA", "RBNS enrichment (R)": 1.06}
{"Sequence": "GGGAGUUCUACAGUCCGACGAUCUAGGACUGCAGUGUGGAGUUCACCUUGGAAGGGCGUUCUAGGUAGGAAGAGCCCGCAGGGCCAUGCAGACCUCAUGCCCAGCUCUCUGACGCUUGUGACAGUGCCUCUUCUGGAAUUCUCGGGUGCCAA", "RBNS enrichment (R)": 0.231}
{"Sequence": "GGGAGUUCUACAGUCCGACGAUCAAGUAUCUGUAAAUACAUGUUUAAAGAUGGAUUUUGUUUAAAAAAUCUAAAGGAACAAGUGUGUCGUGUGUCAAGCUGAUGAGGACUGUCAGACUGUGGCUUAGCUCAGUUGGAAUUCUCGGGUGCCAA", "RBNS enrichment (R)": 0.503}
{"Sequence": "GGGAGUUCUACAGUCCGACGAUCGAGUUCCAGGACAGCCAGAGCUAUACAGAGAAACCCUGUCUUGGAAAAAAAAAAAAAAGACUCAGCAAUGUUCACAUUCUUCAUGUCUAAUCCCUCCUUGCCCACCCAUUUGGAAUUCUCGGGUGCCAA", "RBNS enrichment (R)": 0.561}
{"Sequence": "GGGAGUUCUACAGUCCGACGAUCGCCCUGCUGUGUGAUGCUCAUCGCUUCCCUUCGUGCUGGAGCAGUCCCCCAGGUGUCCAUCUCCUAUCUUUUUGUUCCAAUCUUCUGUGAGUUCCAGCUAGCAGGCUUUAUGGAAUUCUCGGGUGCCAA", "RBNS enrichment (R)": 0.458}
{"Sequence": "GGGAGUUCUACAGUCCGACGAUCAUCGACUAUCGGUUCUGUGCCUGUGCUCUGUUGUGUUGGAGGGAAGGACUGGUAGUUCUGAUUUUUACUCUGUGAACACUUUAUUUAAGGACAUUCUUUUUUAUUGGCGGUGGAAUUCUCGGGUGCCAA", "RBNS enrichment (R)": 4.1}
{"Sequence": "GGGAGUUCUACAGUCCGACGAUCCCAAAGGAUCCGUUGUAAAAAUAUAUAUAUAUAAAUAUAUGUAUAUCCAGUGCAAUCAACUGUCAUUUCUUUUUCCUUAAAACAUAUGAGUAUAUAGAAAGAAAAGUUACUGGAAUUCUCGGGUGCCAA", "RBNS enrichment (R)": 0.818}
{"data": "Sample 2", "target": "RING finger protein unkempt homolog, zinc fingers 1-6, GST-SBP tag (UNK, Homo sapiens, UniProt Q9C0B0, residues 30-357)", "technique": "RNA Bind-n-Seq", "molecule type": "RNA", "matrix": "in vitro", "tested at": "not given", "notes": "RNA with constant flanks, human-mouse chimeric sites, ends assumed", "baseline": "input RNA pool", "direction": "higher = stronger binding", "Residues (chain)": "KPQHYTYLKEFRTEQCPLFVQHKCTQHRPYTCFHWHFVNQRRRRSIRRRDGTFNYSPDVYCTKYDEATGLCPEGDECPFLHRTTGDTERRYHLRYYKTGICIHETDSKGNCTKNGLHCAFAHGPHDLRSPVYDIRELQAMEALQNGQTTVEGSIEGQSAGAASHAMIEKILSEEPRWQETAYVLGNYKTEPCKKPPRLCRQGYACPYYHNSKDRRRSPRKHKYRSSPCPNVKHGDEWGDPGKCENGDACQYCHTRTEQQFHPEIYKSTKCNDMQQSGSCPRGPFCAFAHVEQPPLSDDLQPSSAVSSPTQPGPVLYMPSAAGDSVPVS"}
{"Sequence": "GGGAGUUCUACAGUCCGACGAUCAUAGAUGAAAUUGAUGUGGACCAGGAAGGAAUUGCUGAAAUGAUCCUGGAUGAAAAUGCUAUUGCUCAGGUCCCACGCCCUGGCACAUCUUUGAAACUCCCUGGCACUAACCAAACAGGACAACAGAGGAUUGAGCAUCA", "bound/input enrichment": "0.367 ratio"}
{"Sequence": "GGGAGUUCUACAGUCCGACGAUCGAUAGGAAAAGCUUGUUGGAGACCCGAUUGCAUGUCACUGGUAGAGACCUGAGGUGUCAAAUAGCUGAAACUUUCGGAUUUCAAGAAAAUUACAUCAAGAUCGUAAUAAAUAAGAAACAGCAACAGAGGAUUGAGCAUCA", "bound/input enrichment": "0.37 ratio"}
{"Sequence": "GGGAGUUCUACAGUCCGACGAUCAACUUCGUGCAUCGGUUUCCCUUUGUAGCUGUUUCAAUUGGCUUCCUUGUGAAUAAAGAGAUGGAGUUUGGAAUUGUGUACAGUUGUGUGGAAGAUAAGAUGUACACCGGCAGGAAAGGGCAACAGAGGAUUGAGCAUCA", "bound/input enrichment": "0.466 ratio"}
{"Sequence": "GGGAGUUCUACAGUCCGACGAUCUAUCCAACUUUCUUUCCACAUUUUGAAUUCCAAGACAUUAUUCCUCCAGAUGACUUCCUAACGAGUGAUGAAGAGCAAGAUUUGGUUUUAUUUGGAACUAUGAGAGGACAAGUUGUUGGACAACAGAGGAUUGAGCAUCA", "bound/input enrichment": "0.141 ratio"}
{"Sequence": "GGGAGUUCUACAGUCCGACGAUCAAAGCCCAAGUAUUUUGAAAAAACUCGAACAGAUUUGACAAGGGUAGCCAGCUUGGAGUCUAGCAACUUGCCAAUGUGUUUACCAAUUUUGGGGGCUUGUUUUUCUUUCUUCUUUCAAAUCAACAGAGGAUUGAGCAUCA", "bound/input enrichment": "0.233 ratio"}
{"Sequence": "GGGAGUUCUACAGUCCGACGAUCGUGCCCUCCUUCUCGCUCCUGCGGGGCAGCUGGGAACCAUUCCGGGACUGGUACCCUGCACACAGCCGCCUCUUCGAUCAAGCUUUCGGGGUGCCCCGGUUGCCCGAUGAGUGGUCGCAGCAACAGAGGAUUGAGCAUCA", "bound/input enrichment": "0.0549 ratio"}
{"Sequence": "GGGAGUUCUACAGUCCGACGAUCUUAAUCCCCUUUACUGCUCCCCCACUUGUCAUGCUGAUAACAAAGUCUUAUAUCCCCGUCCUAGCUUUCACUCAGAUGGCUUAUGGAGCCGGUUUCCUAGCUUUCUUGGGAGGGAUCAGACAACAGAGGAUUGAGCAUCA", "bound/input enrichment": "0.318 ratio"}
{"Sequence": "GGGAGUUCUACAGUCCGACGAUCUCCUGGUCGUGUCCCAGUGCAGGACGAUGUGAACAAAAACUCAAAGCGGACCCUCUAUUGUAGUUCUUGAUUCUCGAGUGCCAUUAUUAUUGUUUGUCUUUUUUUUUUUUUUUUUAAAGACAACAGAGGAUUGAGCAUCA", "bound/input enrichment": "1.55 ratio"}
{"Sequence": "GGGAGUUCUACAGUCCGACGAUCCAGGGCAUCAUCUCUCGUGCUGUUAGACACCUGUUCAAGAGUAUUGAUGAGAAAAAGCACAUAGCAAUUAAAAACGGGCUGCCCCCUCCUGAAUUCAAAGUGAAUGCCCAGUUCCUAGAGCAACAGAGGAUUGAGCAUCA", "bound/input enrichment": "1.09 ratio"}
{"Sequence": "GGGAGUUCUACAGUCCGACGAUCGUGUCCUGCUUUCAACUUAAAUCACUGAGGCAUCUCUACUGUUCUGUGAGCAUCAGGACUGUAGCGCUGUGUCACCACAGAUGAGAAGUUAAGCAGCCUUUCUGUGGAGGGUGGGAAUGACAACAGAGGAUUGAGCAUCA", "bound/input enrichment": "0.142 ratio"}
{"Sequence": "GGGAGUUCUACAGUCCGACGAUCCACUCGAGGGCUGCCGUUUUCUGUUUCGCCCUGAGCUGCGGAAAGCCAGAAGAUUUUAUCUAGCUUAUACAAGGCUGCUGGUGUUCCCUCUUUUUUUCCACGAGGGUGUUUUUGGCUGCACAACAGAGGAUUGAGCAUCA", "bound/input enrichment": "0.372 ratio"}
{"data": "Sample 3", "target": "CCNA2, cyclin fold, Cln2 fusion (human)", "technique": "yeast growth competition, sequencing", "matrix": "yeast", "notes": "weak parent motif", "baseline": "not given", "direction": "higher = stronger binding", "starting sequence": "DBF4 docking peptide (human); DDIVSKLVFDFVE"}
{"Substitution": "V4A", "normalised enrichment score": -0.176}
{"Substitution": "D1A", "normalised enrichment score": -0.315}
{"Substitution": "D2A", "normalised enrichment score": -0.214}
{"Substitution": "V8A", "normalised enrichment score": -0.728}
{"Substitution": "S5A", "normalised enrichment score": -0.688}
{"Substitution": "F9A", "normalised enrichment score": -0.438}
{"data": "Further values, each from its own experiment"}
{"Substance": "PhoQ, residues 284 288 289 292 302 303 TLSLKA", "target": "PhoP, residues 12 14 15 18 19 SYFRT (Escherichia coli, UniProt P23836)", "assay": "Sort-seq, item: YFP reporter", "system": "E. coli", "setting": "PhoQ-PhoP variant library, together with: 10 µM Mg2+", "how to read": "baseline: high Mg2+ state, higher = stronger signaling", "endpoint": "fold induction", "result": 6.86}
{"note": "For quick reference, copied from above (sample 2):"}
{"Sequence": "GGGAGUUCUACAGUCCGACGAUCUCCUGGUCGUGUCCCAGUGCAGGACGAUGUGAACAAAAACUCAAAGCGGACCCUCUAUUGUAGUUCUUGAUUCUCGAGUGCCAUUAUUAUUGUUUGUCUUUUUUUUUUUUUUUUUAAAGACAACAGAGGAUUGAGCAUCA", "bound/input enrichment": "1.55 ratio"}
{"Sequence": "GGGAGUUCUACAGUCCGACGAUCCAGGGCAUCAUCUCUCGUGCUGUUAGACACCUGUUCAAGAGUAUUGAUGAGAAAAAGCACAUAGCAAUUAAAAACGGGCUGCCCCCUCCUGAAUUCAAAGUGAAUGCCCAGUUCCUAGAGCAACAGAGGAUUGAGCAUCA", "bound/input enrichment": "1.09 ratio"}
